Results collected from several papers.
Each numbered part is a random draw from the data of one study; scales do not carry over between parts. Changes are numbered by the printed parent chain.

Sample 1 — target: CCNB3, cyclin fold, Cln2 fusion (human); technique: yeast growth competition, sequencing; matrix: yeast; setting: weak parent motif; reference: not given; reading: higher = stronger binding
Starting sequence: GMNC docking peptide (human); KNAKRNLSSEFAN; partner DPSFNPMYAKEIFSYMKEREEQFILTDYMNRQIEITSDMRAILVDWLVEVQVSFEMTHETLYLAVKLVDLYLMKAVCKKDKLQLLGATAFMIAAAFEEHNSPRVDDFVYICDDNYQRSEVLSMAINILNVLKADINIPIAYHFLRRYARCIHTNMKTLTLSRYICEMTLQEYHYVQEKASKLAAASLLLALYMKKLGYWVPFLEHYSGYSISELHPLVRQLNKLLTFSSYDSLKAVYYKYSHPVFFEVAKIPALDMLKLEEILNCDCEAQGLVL
Substitution | normalised enrichment score
KNAKRNLSSEVAN [F11V] | 0.122
KNAKRILSSEFAN [N6I] | -0.0397
KNAKRNLSIEFAN [S9I] | 0.207
KNAKRNLSWEFAN [S9W] | 0.47
KNPKRNLSSEFAN [A3P] | -0.75
KNAKRNLSSECAN [F11C] | 0.209
KNAKRNLDSEFAN [S8D] | 0.144
KNAKRSLSSEFAN [N6S] | 0.249
KNANRNLSSEFAN [K4N] | -0.00751
KPAKRNLSSEFAN [N2P] | 0.417
KNAKRNLSSEFVN [A12V] | -0.206
KNAKRNGSSEFAN [L7G] | 0.147
KNAVRNLSSEFAN [K4V] | 0.121
KNAKRNLSSEFLN [A12L] | -0.089
KNAKRNLSSEMAN [F11M] | 0.46
KNAKRNLSSSFAN [E10S] | 0.0789
KKAKRNLSSEFAN [N2K] | 0.548
KNAKRNLSSEKAN [F11K] | 0.319
KNAKTNLSSEFAN [R5T] | 0.194
KNATRNLSSEFAN [K4T] | -0.0102
KNAKRNLSSEFMN [A12M] | 0.0984
KNAKRNFSSEFAN [L7F] | 0.0597
KNAKRNLLSEFAN [S8L] | 0.77

Sample 2 — technique: universal PBM; molecule type: double-stranded DNA, one strand shown; matrix: in vitro; tested at: not given; reading: higher = stronger binding
Target: Sal-like protein 4, full length isoform B (SALL4, Homo sapiens, UniProt Q9UJQ4-2, residues 1-616)
Setting: 8-mer, flanks averaged, mean of replicates
Oligonucleotide | E-score
CCTATGGA | 0.0202
AATCCTAA | 0.0888
CCAAGGAG | -0.158
ACGCTATC | -0.132
CGGCACGA | -0.276
GATGACGA | 0.103
CGATACAC | 0.12
CACCCCTG | -0.257
ACCTTGCG | -0.123
AGTTTGAA | 0.186
ACCCATCG | -0.102
ACCGCCGT | -0.217
CCTAACCG | -0.233
ACCTCCGC | -0.247
TACGGGAA | -0.148
TTCCCCAA | -0.103
AGGTGGAG | -0.154
AGGACTTG | -0.145
AGCTCTTA | -0.161
ACAGGCGA | -0.128
AATCTCCC | -0.132
ATGATTGG | 0.155
TCACCCAA | 0.112
CCAGGATC | -0.232
TCATAAGA | 0.324

Sample 3 — technique: RNA Bind-n-Seq; molecule type: RNA; matrix: in vitro; tested at: 200 nM; setting: whole 134-nt RNA, ends assumed; added: 150 mM KCl; reference: input library; reading: higher = stronger binding
Target: Ras GTPase-activating protein-binding protein 1, full length (G3BP1, Homo sapiens, UniProt Q13283)
Chain of UniProt Q13283 (whole entry, looked up): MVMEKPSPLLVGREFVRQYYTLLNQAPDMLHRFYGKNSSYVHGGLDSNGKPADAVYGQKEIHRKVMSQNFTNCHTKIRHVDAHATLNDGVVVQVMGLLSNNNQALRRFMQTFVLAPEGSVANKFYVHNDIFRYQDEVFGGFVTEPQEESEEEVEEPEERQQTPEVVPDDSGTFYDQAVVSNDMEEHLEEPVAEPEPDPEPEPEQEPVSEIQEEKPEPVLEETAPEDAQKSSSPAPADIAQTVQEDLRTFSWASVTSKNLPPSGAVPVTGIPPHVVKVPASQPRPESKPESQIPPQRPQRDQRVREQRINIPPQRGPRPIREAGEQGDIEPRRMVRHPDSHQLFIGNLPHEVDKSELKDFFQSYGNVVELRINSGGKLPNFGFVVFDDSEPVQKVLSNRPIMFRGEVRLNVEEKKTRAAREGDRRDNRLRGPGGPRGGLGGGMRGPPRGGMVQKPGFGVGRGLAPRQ
Shared flanks, not repeated: GGGAGUUCUACAGUCCGACGAUC … UGGAAUUCUCGGGUGUCAAGG
Oligonucleotide | log2 enrichment
GCAGGAAGUAAAAACAAAUGGAAAUGCUUCGGAUAGUGGCAGGGGUGGGGGUUCCUAAGGAAAGGGUGGGAUGGGAGUGGGUAAAGAGUU | 1.44
CUCAAGUCCUGUGCUACACAUCGUAUGUACCGAAUCGGGCCGGCCGGGCCGGGAAAGUAUUAUGUUACGCCGUUCGGAUCUGCACUUCCA | -0.167
CCUGUGCUACACAUCGUAUGUACCGAAUCGGGGAAAAAGGGGAAAAAGGGGAAAAAGGGGAAAGUAUUAUGUUACGCCGUUCGGAUCUGC | 0.155
CCUCAAGUCCUGUGCUACACAUCGUAUGUACCGAAUCGGGCGGGGCGGGCGGAAAGUAUUAUGUUACGCCGUUCGGAUCUGCACUUCCAG | 0.645
GUCCUGUGCUACACAUCGUAUGUACCGAAUCGGGUUUUGGGGUUUUGGGGUUUUGGGGAAAGUAUUAUGUUACGCCGUUCGGAUCUGCAC | 0.0338
CUGUGCUACACAUCGUAUGUACCGAAUCGGGGUUUUUUGGGGUUUUUUGGGGUUUUUUGGGGAAAGUAUUAUGUUACGCCGUUCGGAUCU | -0.41
AAGUCCUGUGCUACACAUCGUAUGUACCGAAUCGGGGUUUGGGGUGGGGUUUGGGGAAAGUAUUAUGUUACGCCGUUCGGAUCUGCACUU | 0.24
UGGGAGGUGGAUUUUGUUUAUUUUUUCAGCUCAUUUCCAGGGGUGGGAAUUUUUUUUUAAUAUGUGUCAUGAAUAAAGUUGUUUUUGAAA | 0.173
CACAGACAACACGCACCCACACAGACACAGAGGGAAGGGGUUGGGAUGGGGACAGGGUGCACAGCAGGGCGGGGUAGGACCCCACCCCCU | 1.93
CAAGUCCUGUGCUACACAUCGUAUGUACCGAAUCGGGGCCCGGCCCGGGCCCGGGAAAGUAUUAUGUUACGCCGUUCGGAUCUGCACUUC | -0.63
CGCAGAAGUCGCGUGUCUAGGUGAGUCGCGGUGGGUCCUCGCUUGCAGUUCAGCGACCACGGUGGGUACCGUUUUUGCGAGGAUUGUUUG | -1.69
AACAGACAACACGCACCCACACAGACACAGAGGGAAGGGGUUGGGAUGGGGACAGGGUGCACAGCAGGGCGGGGUAGGACCCCAGCCCCU | 1.74
UAACUUUAGAGGAGGAUCUGAUGGAUAUGGCAGUGGACGAGGAUUUGGGGAUGGCUAUAAUGGGUAUGGAGGAGGACCUGGAGGUGGCAA | 0.345
UCAAGUCCUGUGCUACACAUCGUAUGUACCGAAUCGGUUUGGAAAAAGGUUUGGAAAGUAUUAUGUUACGCCGUUCGGAUCUGCACUUCC | -1.03

Sample 4 — technique: RNA Bind-n-Seq; molecule type: RNA; matrix: in vitro; tested at: 365 nM; reference: no-protein control; reading: higher = stronger binding
Target: RNA binding protein fox-1 homolog 2, RRM domain, GST-SBP tag (RBFOX2, Homo sapiens, UniProt O43251-10, residues 100-194)
Setting: natural RNA segment, single round, ends assumed
Shared flanks, not repeated: GGGAGUUCUACAGUCCGACGAUC … UGGAAUUCUCGGGUGCCAA
Target sequence (chain): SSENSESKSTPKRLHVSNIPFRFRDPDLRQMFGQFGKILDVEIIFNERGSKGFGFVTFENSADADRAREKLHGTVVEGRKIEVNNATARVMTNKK
Oligonucleotide | RBNS enrichment (R)
UUGAUAAGAUUAACAAUGUGUGCUUUGUAAAUGCCUUUUUCCUUAUCUUCUAUGUCUCUGUCAAGGACAGAAGUUGUCAGUUUAAUACACGAGCUCUUGUGUUGAAAGUG | 0.571
AUGGACAGACAGAUCCCUGAUGUCUGUCACUAUAGACACACGUGUUGUACAUGUGGCCCUUAACACUUGACACUCUUAACACUACUCAUGGGGCUGGGUAGAGGGAGGCU | 0.626
CCCUGGCCACGAGCUUUGGCCUUGGUCUACCUGCCAGGCCAGGCAAAGCGCCUUUACACAGGCCUCGGAAAACAAUGGAGUGAGCACAAGAUGCCCUGUGCAGCUGCCCG | 0.312
CUGCGCACGUAGGACUGAAUUCAGUGAUAUCCCUAUACACUGCCAAUUAGUGGAUAGGUUAUUGUACUUCCAUUCAUACUCUGGGCACUUGUGUUAAAUUGUUCUGUUAC | 0.303
UGGUCAGCACUUGUUAUUGGCCUAUGAACUAAAAGCAAAUCAAAGCUCAUAAAUCAAAGCUCAUCAGUUCCCAUAAAUGCAGUUGUCAAAGAAAAGAUUUGGUUGCCAUA | 0.464
GUGUUCAGAGGGAGUCUGCUACAAACUAUCAGGGCAAAAUCUCACUGGAUUUCUCCACUGAAAACCUACUUGAGGUUUCUGGUCUGAAGGCUUAAGAGUCACAUCUUAGC | 0.267
AAAUUGAAAUCUUUGCCUAGGCAGAGAAAUUGACCUAUGGUGGCUUAUUUUAGUCUUUUAUAAAUAAACUGAGUUUUUGAUAGGGUAACUUAUGGAUUGACUAGAUUCAU | 0.357
CCUGAUUGAGUUCGCCUCACACCAGCAUCUUCCCUUAUUCUGUCUGCCUAAGCACAUAACUUUCAAGUUUGUACUAUGAUCCAUGCACUCAUUAAUACCUUGCUCUGCAG | 0.333
CAGAGGGGGCCAAGGCCUGUUUCAAAAACAACAACCAAGACAAGCAAAACCAGGUGUUGCUUUGCUAUGUUCCUGUACACUGUGGGAGAGGUAAUAGCAUCUGUGGGACA | 0.813
AUUGCAAAGAUGUAAAAUAUGCCAGAUGUGUGUGAGUUGGAAAUCAAAAAAAGAAAAAUAAAAUAUGAAAGAAUUCACUGAUUGUCUCACAAGUCACUGGAUGCCUCGGU | 3.17
UAUUUUGAAUUGGAUCGUUACAAAUGAGCAUAUUUGAUGCGGAAAUUUCUGGGAGAAAAAAAAUUGAGGAAAUAAAGUUAAAAAAUUGACAUUCAUUGAGCCAAAAGAGA | 0.8
UGAAGGACACAAAUGUGACCGUCCAUCCUCCUUUAGAGUUGCAUGACUUGGACACGGUAACUGUUGCAGUUUUAGACUCAGCAUUGUGACACUUCCCAAGAAGGCCAAAC | 3.79

Sample 5 — technique: protein-binding microarray; molecule type: double-stranded DNA, one strand shown; matrix: in vitro; tested at: 250 nM; setting: 60-bp whole probe; added: salmon DNA 0.4 mg/ml; reference: random background probes; reading: higher = stronger binding; shared flanks, not repeated: GCCTAGCAC … GTCTTGATTCGCTTGACGCTGCTG
Target: Interferon regulatory factor 5, full length, phosphomimetic (IRF5, Homo sapiens, UniProt Q13568-2, residues 1-514, K96S/S451D/S453D/S456D/S462D)
Oligonucleotide | log fluorescence
TTAGATATCTGGTTTCGATTAGTGCTA | 8.91 z-score
AAATGTGTTAGAAACAGGTTGTGCTAG | 0.157 z-score
TTAGGCATCGGGTTTCGGTTAGTGCTA | 7.56 z-score
TCATCTATCTTAAATAGGACTGTGCTA | 0.606 z-score
AGTCCTGTCCAAGATGAGGAGTGCTAG | -0.345 z-score
CTCCCTCAGGGTTTCAGATGGTGCTAG | 0.117 z-score
TTAGGACTGGGGACGGGGTTAGTGCTA | 0.359 z-score
TTAGGTATCGGGTTTAGGTTAGTGCTA | 3.36 z-score
TCAACTTTCTCTGCTCTTACTGTGCTA | 2.38 z-score
TTAGGTCTCCTTATCCTTCAGTGCTAG | -0.166 z-score
GACGGTCTCGGTCTCGGGACGTGCTAG | 0.0104 z-score
TCATGTGCCCATCTCTGACTGTGCTAG | -0.276 z-score
GTTTGGGTCTTGTCTGGAGTCGTGCTA | -0.174 z-score
GACGGACTGGGCTTCGGGACGTGCTAG | -0.563 z-score
GACGATCTCAGTCTCGACACGTGCTAG | -0.0111 z-score
GACTGTTTCGGTTTCGGGACGTGCTAG | 10.5 z-score
GGTGTCTAGGTTAGGGATTAGTGCTAG | -0.334 z-score
GACGATTTCAGACTGGAAACGTGCTAG | 0.243 z-score
TTAGATATCAGGCTGGATTAGTGCTAG | 0.476 z-score
TACGGACTGGGGTTTCGGGACGTGCTA | 1.11 z-score
GACGATATCAGTTTCGAGATGTGCTAG | 6.65 z-score
CAGAGTCTAGCCATTGTGGGTGTGCTA | -0.551 z-score
GTTTTTTGGTTTCTGGTTTAGTGCTAG | 4.28 z-score
GACGACATCGGGTATCGAGACGTGCTA | 0.581 z-score
GACGGTCTCGCTATCGGGACGTGCTAG | 0.726 z-score
